# Measurements of several laboratories.
# Lines come from different studies, so protocols differ.
# CALCR: Calcitonin receptor (CALCR, Homo sapiens, UniProt P30988)
# VHL/BRD9: VHL/BRD9 (Homo sapiens, UniProt P40337+Q9H8M2)
SMILES,target,test,test system,conditions,EC50 [µM]
Cc1ncsc1-c1ccc(CNC(=O)C2CC(O)CN2C(=O)C(N)C(C)(C)C)cc1 (stereo not shown),"Aurora kinase B (AURKB, Homo sapiens, UniProt Q96GD4)",NanoBRET target engagement,HEK293 expressing NanoLuc fusion,2 h,> 30
O=Cc1ccc([N+](=O)[O-])c(OS(=O)(=O)c2ccccc2)c1,"YWHAG/RELA, phospho-Ser45 p65 peptide (Homo sapiens, UniProt P61981+Q04206)","ternary complex formation, stabilizer, fluorescence anisotropy",,,> 1000
COc1ccc(C(=O)c2c(C(=O)NCCCN(C)C)oc3ccc(Cl)cc3c2=O)cc1OC,"Growth hormone secretagogue receptor type 1 (GHSR, Homo sapiens, UniProt Q92847, L149G)","beta-arrestin-2 recruitment, BRET",HEK293T,60 min,0.457
Cc1ncc2[nH]c(=O)n(-c3cnc(Oc4cccc5c4C(C)(C)CO5)c(Cl)c3)c2n1,"Voltage-gated potassium channel KCNC1 (KCNC1, Homo sapiens, UniProt P48547)","ion current, activator, automated patch clamp",HEK293 expressing Kv3.1,"holding -70 mV, test -15 mV",0.078
COc1cc(I)c(Cc2cc(OC)c(OC)cc2CC(=O)OC(C)(C)C)cc1OC,"Melatonin receptor type 1B (MTNR1B, Homo sapiens, UniProt P49286)","GTPγS binding, agonist, radiometric",,cell membranes,0.00741
CC[C@H](C)[C@@H](C(=O)N[C@@H](CC(C)C)C(=O)N[C@@H](CO)C(=O)N[C@@H](CO)C(=O)N[C@H](C(=O)N[C@@H](CCC(=O)O)C(=O)N[C@H](C(=O)NCC(=O)N[C@@H](CO)C(=O)N[C@@H](CC(N)=O)C(=O)N[C@H](C(=O)N1C[C@H](O)C[C@H]1C(N)=O)[C@@H](C)O)C(C)C)[C@@H](C)O)N(C)C(=O)[C@H](C)NC(=O)CN(C)C(=O)[C@H](Cc1ccccc1)NC(=O)[C@H](CO)NC(=O)[C@H](CO)NC(=O)[C@H](CCCNC(=N)N)NC(=O)[C@H](CCC(N)=O)NC(=O)[C@H](CC(C)C)NC(=O)[C@H](Cc1ccccc1)NC(=O)[C@H](CCCC(=O)O)NC(=O)[C@H](C)NC(=O)[C@H](CC(C)C)NC(=O)[C@H](CCCNC(=N)N)NC(=O)[C@H](CCC(=O)O)NC(=O)[C@@H](NC(=O)[C@H](C)NC(=O)[C@@H]1CSSC[C@H](NC(=O)[C@H](CCCNC(=N)N)NC(=O)CC[C@H](NC(=O)CCCCCCCCCCCCCCCCCCC(=O)O)C(=O)O)C(=O)NCC(=O)N[C@@H]([C@@H](C)O)C(=O)N[C@@H](C)C(=O)N[C@@H]([C@@H](C)O)C(=O)N1)[C@@H](C)O,CALCR,"cAMP, agonist",,,0.000151
CC(=O)NCCN(c1nc(N2CC3C(CCOc4cc(-c5scnc5C)ccc4CNC(=O)[C@@H]4C[C@@H](O)CN4C(=O)[C@@H](NC(=O)C4(F)CC4)C(C)(C)C)C3C2)nc(N2CC(n3ccnc3)C2)n1)C(C)C (stereo partly shown),VHL/BRD9,"ternary complex formation, NanoBiT",HEK293T,"2 h, together with: MLN4924 2 µM",0.464
CC[C@H](C)[C@@H](C(=O)N[C@@H](CC(C)C)C(=O)N[C@@H](CO)C(=O)N[C@@H](CO)C(=O)N[C@H](C(=O)N[C@@H](CC(N)=O)C(=O)N[C@H](C(=O)NCC(=O)N[C@@H](CO)C(=O)N[C@@H](CC(N)=O)C(=O)N[C@H](C(=O)N1C[C@H](O)C[C@H]1C(N)=O)[C@@H](C)O)C(C)C)[C@@H](C)O)N(C)C(=O)[C@H](C)NC(=O)CN(C)C(=O)[C@H](Cc1ccccc1)NC(=O)[C@H](CC(N)=O)NC(=O)[C@H](CC(N)=O)NC(=O)[C@H](CO)NC(=O)[C@H](CO)NC(=O)[C@H](CCCNC(=N)N)NC(=O)[C@H](Cc1c[nH]cn1)NC(=O)[C@H](CC(C)C)NC(=O)[C@H](Cc1ccccc1)NC(=O)[C@H](CCC(=O)O)NC(=O)[C@H](C)NC(=O)[C@H](CC(C)C)NC(=O)[C@H](CCCNC(=N)N)NC(=O)[C@H](CCC(N)=O)NC(=O)[C@@H](NC(=O)[C@H](C)NC(=O)[C@@H]1CSSC[C@H](NC(=O)[C@H](CCCNC(=N)N)NC(=O)CC[C@H](NC(=O)CCCCCCCCCCCCCCCCCCC(=O)O)C(=O)O)C(=O)N[C@@H](CC(N)=O)C(=O)N[C@@H]([C@@H](C)O)C(=O)N[C@@H](C)C(=O)N[C@@H]([C@@H](C)O)C(=O)N1)[C@@H](C)O,CALCR,"cAMP, agonist",,,8.13e-05
CC(C)Oc1cc(Cl)ccc1CNc1cc(-c2ccccc2)nc2ncnn12,"G-protein coupled receptor 3 (GPR3, Homo sapiens, UniProt P46089, L136A)","cAMP level, agonist",,FLAG-10xHis tagged,2.62
CC(=O)NCC1CCCCN1c1nc(N(C)CCc2ncc(C)s2)nc(N2CC3C(CCOc4cc(-c5scnc5C)ccc4CNC(=O)[C@@H]4C[C@@H](O)CN4C(=O)[C@@H](NC(=O)C4(F)CC4)C(C)(C)C)C3C2)n1 (stereo partly shown),VHL/BRD9,"ternary complex formation, NanoBiT",HEK293T,"2 h, together with: MLN4924 2 µM",0.195

# A few entries again:
SMILES,target,test,test system,conditions,EC50 [µM]
Cc1ncc2[nH]c(=O)n(-c3cnc(Oc4cccc5c4C(C)(C)CO5)c(Cl)c3)c2n1,"Voltage-gated potassium channel KCNC1 (KCNC1, Homo sapiens, UniProt P48547)","ion current, activator, automated patch clamp",HEK293 expressing Kv3.1,"holding -70 mV, test -15 mV",0.078
